Published values gathered from unrelated publications.
Numbered parts are unrelated; each lists some results of a single study. Substitutions count along the parent as printed.

Series 1
Target: Ras GTPase-activating protein-binding protein 1, full length (G3BP1, Homo sapiens, UniProt Q13283)
Sequence of UniProt Q13283 (whole entry, looked up): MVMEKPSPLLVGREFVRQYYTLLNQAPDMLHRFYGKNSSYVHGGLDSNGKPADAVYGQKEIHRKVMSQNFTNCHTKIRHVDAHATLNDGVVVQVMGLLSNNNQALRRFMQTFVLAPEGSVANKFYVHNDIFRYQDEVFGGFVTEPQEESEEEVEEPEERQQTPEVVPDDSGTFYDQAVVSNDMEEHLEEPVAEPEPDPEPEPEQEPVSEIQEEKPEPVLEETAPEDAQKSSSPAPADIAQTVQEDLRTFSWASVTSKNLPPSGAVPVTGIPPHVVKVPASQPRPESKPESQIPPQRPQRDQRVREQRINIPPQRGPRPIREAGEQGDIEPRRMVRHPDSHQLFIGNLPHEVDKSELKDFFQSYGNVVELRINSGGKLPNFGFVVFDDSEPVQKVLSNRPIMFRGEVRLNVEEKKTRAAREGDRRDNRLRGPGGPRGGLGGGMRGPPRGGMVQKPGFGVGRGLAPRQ
Technique: RNA Bind-n-Seq
Molecule type: RNA
Matrix: in vitro
Tested at: 200 nM
Notes: whole 134-nt RNA, ends assumed
With: 150 mM LiCl
Baseline: input library
Direction: higher = stronger binding
Each molecule: 7-deaza-guanosine replaces G
For `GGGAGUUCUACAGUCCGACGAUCAAGUCCUGUGCUACACAUCGUAUGUACCGAAUCGGGGAAAAGGGGAAAAGGAAAAGGAAAGUAUUAUGUUACGCCGUUCGGAUCUGCACUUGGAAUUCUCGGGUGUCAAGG`, the log2 enrichment was 0.322.
The log2 enrichment of `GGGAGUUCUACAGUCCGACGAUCUAACUUUAGAGGAGGAUCUGCUGGAUAUGGCAGUGGACGUGGAUUUGGGGAUGGCUAUAAUGGGUAUGGAGGAGGACCUGGAGGUGGCAAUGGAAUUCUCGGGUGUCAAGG` is reported as 0.0106.
The log2 enrichment of `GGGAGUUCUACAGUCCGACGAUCUGUGAGACUGAAGAUUAUGGAGAAAAGUUUGAUGAAAAUGAUGUGAUUACAUGUUUUGCUGUAAGUUAAAGCUAACUUUCUAUGUAUAAAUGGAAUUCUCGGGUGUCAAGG` is reported as -2.15.
For `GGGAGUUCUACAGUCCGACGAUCUCAAGUCCUGUGCUACACAUCGUAUGUACCGAAUCGGGUUUGGUUUGGUUUGGGAAAGUAUUAUGUUACGCCGUUCGGAUCUGCACUUCCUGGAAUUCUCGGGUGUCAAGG`, the log2 enrichment was -0.556.
With `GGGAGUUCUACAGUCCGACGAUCCCUGUGCUACACAUCGUAUGUACCGAAUCGGGGAAAAAAGGGGAAAAAAGGGAAAAAAGGGAAAGUAUUAUGUUACGCCGUUCGGAUCUGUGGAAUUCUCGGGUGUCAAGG` the log2 enrichment was 0.604.
`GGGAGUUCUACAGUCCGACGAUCUCCUGUGCUACACAUCGUAUGUACCGAAUCGGGGUUUUUGGGGAAAGGGGUUUUUGGGGAAAGUAUUAUGUUACGCCGUUCGGAUCUGCAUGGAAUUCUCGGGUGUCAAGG` gave a log2 enrichment of 0.0864.
For `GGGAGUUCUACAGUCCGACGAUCUGGAUUUUCAAGACACGAAUGCUCGGAGUCUGGCAGAAAGGAAGAGAGAAGAGGAGAAGCAGAAGCACUUGGAUAAAAUUUAUCAAGAAAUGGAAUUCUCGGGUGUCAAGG`, the log2 enrichment was -1.08.
For `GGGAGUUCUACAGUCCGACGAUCGUCCUGUGCUACACAUCGUAUGUACCGAAUCGGCCCCCCGGCCCCCCGGCCCCCCGGGGAAAGUAUUAUGUUACGCCGUUCGGAUCUGCAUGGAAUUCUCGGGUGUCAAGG`, the log2 enrichment was -0.345.

Series 2
Target: Histone acetyltransferase KAT6A, both winged helices, GST fusion (KAT6A, Homo sapiens, UniProt Q92794, residues 1-181)
Technique: protein binding microarray
Molecule type: double-stranded DNA, one strand shown
Matrix: in vitro
Tested at: not given
Notes: 8-mer, flanks averaged, mean of 2 arrays, mostly near background
Baseline: not given
Direction: higher = stronger binding
Target sequence (chain): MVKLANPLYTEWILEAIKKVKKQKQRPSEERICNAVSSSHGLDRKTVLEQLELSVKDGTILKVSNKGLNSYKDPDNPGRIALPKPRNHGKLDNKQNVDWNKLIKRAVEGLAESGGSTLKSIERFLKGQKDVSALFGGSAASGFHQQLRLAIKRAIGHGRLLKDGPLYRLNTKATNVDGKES
For `CGGAACTA`, the E-score was 0.173.
With `AAGGTTCG` the E-score was 0.0355.
The E-score of `AACTGTCC` is reported as -0.104.
For `ACGGGGCA`, the E-score was 0.171.
With `ACCTTTGC` the E-score was 0.00726.
`ATAGTGGC` gave an E-score of -0.0248.
`AACTCTGG` has an E-score of -0.186.
For `TAAAAAGA`, the E-score was -0.142.
For `AATAGGCT`, the E-score was -0.0739.
For `TATCGATA`, the E-score was -0.0138.
`AGGGCTAG` has an E-score of -0.11.
For `ATTAGCGC`, the E-score was 0.326.
For `AGAAGACG`, the E-score was -0.0599.
The E-score of `ACTTCTCC` is reported as -0.206.
The E-score of `CCAATGTA` is reported as -0.115.
`ACAGAACA` gave an E-score of 0.034.
For `CCACTGGA`, the E-score was -0.131.
With `CACAGAAC` the E-score was -0.0419.
With `ATCATAAA` the E-score was -0.127.

Series 3
Target: CCNE1, cyclin fold, Cln2 fusion (human)
Technique: yeast growth competition, sequencing
Matrix: yeast
Notes: weak parent motif
Baseline: not given
Direction: higher = stronger binding
Starting sequence: MASTL docking peptide (human); PMIAKNLMCELDE
Under “normalised enrichment score”, `PMIVKNLMCELDE [A4V]` is recorded as 0.188.
`PMIAKNLMCERDE [L11R]` — result for “normalised enrichment score”: -0.328.
`PMIAKNLMCELGE [D12G]`: “normalised enrichment score” -0.0981.
`PMNAKNLMCELDE [I3N]` — result for “normalised enrichment score”: -0.0188.
`PMIAKNAMCELDE [L7A]` — result for “normalised enrichment score”: -0.223.
`PMIAKNLSCELDE [M8S]` — result for “normalised enrichment score”: -0.0765.
`PMIAKNDMCELDE [L7D]`: “normalised enrichment score” -0.319.
Under “normalised enrichment score”, `PMIAKNLMCETDE [L11T]` is recorded as -0.048.
Under “normalised enrichment score”, `PMIAKNLMCFLDE [E10F]` is recorded as -0.135.
`PMPAKNLMCELDE [I3P]` — result for “normalised enrichment score”: 0.124.
For `PMIAKNLMMELDE [C9M]`, “normalised enrichment score” read -0.0697.
For `PMIAKNWMCELDE [L7W]`, “normalised enrichment score” read 0.384.
Under “normalised enrichment score”, `PMIAKNLMCELYE [D12Y]` is recorded as -0.384.
For `PMFAKNLMCELDE [I3F]`, “normalised enrichment score” read -0.0792.
`PMIAKNLMYELDE [C9Y]` — result for “normalised enrichment score”: -0.0568.
For `PMWAKNLMCELDE [I3W]`, “normalised enrichment score” read 0.00608.
Under “normalised enrichment score”, `PMIQKNLMCELDE [A4Q]` is recorded as -0.218.
For `PMIAKPLMCELDE [N6P]`, “normalised enrichment score” read 0.0494.
`PMYAKNLMCELDE [I3Y]`: “normalised enrichment score” 0.451.
For `PMIAKNCMCELDE [L7C]`, “normalised enrichment score” read 0.0643.
`PMIAWNLMCELDE [K5W]`: “normalised enrichment score” 0.306.
Under “normalised enrichment score”, `PMIAKNLMHELDE [C9H]` is recorded as -0.323.
`PMIAKNYMCELDE [L7Y]` — result for “normalised enrichment score”: -0.0864.
Under “normalised enrichment score”, `PMIAKFLMCELDE [N6F]` is recorded as 0.105.
`PMIAKNLMCELME [D12M]`: “normalised enrichment score” 0.0729.

Series 4
Target: Prothrombin, mature alpha-thrombin (F2, Homo sapiens, UniProt P00734)
Technique: aptamer microarray, sandwich
Molecule type: DNA with 2'F-ANA
Matrix: in vitro
Tested at: 200 nM
Notes: whole 15-mer aptamer, many near background
With: Cy3 exosite-II aptamer, 400 nM
Direction: higher = stronger binding
Sequence: GGTTGGTGTGGTTGG
For `2'F-ANA at 1 2 4 5 9 11 12 14`, “mean fluorescence intensity” read 47 a.u.
`2'F-ANA at 2 3 4 8 9 11 14 15` — result for “mean fluorescence intensity”: 256 a.u.
`2'F-ANA at 1 3 4 5 6 7 8 9 13 15`: “mean fluorescence intensity” 55.3 a.u.
For `2'F-ANA at 2 3 4 5 7 9 11 13 14 15`, “mean fluorescence intensity” read 49.4 a.u.
`2'F-ANA at 1 2 6 8 9 14 15` — result for “mean fluorescence intensity”: 57.8 a.u.
`2'F-ANA at 1 2 3 4 5 6 7 12 13 14 15` — result for “mean fluorescence intensity”: 68.4 a.u.
Under “mean fluorescence intensity”, `2'F-ANA at 1 3 4 7 8 10 14 15` is recorded as 53 a.u.
For `2'F-ANA at 4 6 8 10 11 12 13 15`, “mean fluorescence intensity” read 76.1 a.u.
For `2'F-ANA at 1 3 7 10 13 14`, “mean fluorescence intensity” read 60.9 a.u.
For `2'F-ANA at 3 6 7 8 9 10 11 14 15`, “mean fluorescence intensity” read 346 a.u.
For `2'F-ANA at 4 5 6 10 11 12 14`, “mean fluorescence intensity” read 47.7 a.u.
`2'F-ANA at 5 9 10 11 14 15`: “mean fluorescence intensity” 47.8 a.u.
`2'F-ANA at 2 4 9 13 15`: “mean fluorescence intensity” 187 a.u.
`2'F-ANA at 1 2 3 7 9 10 12 13 14`: “mean fluorescence intensity” 54.6 a.u.
`2'F-ANA at 1 2 4 5 8 12 13 14` — result for “mean fluorescence intensity”: 44.1 a.u.
For `2'F-ANA at 2 3 4 5 9 11 12 15`, “mean fluorescence intensity” read 139 a.u.
For `2'F-ANA at 1 3 6 11 12 13 14 15`, “mean fluorescence intensity” read 89.1 a.u.
For `2'F-ANA at 2 5 12 13 14 15`, “mean fluorescence intensity” read 47.9 a.u.
Under “mean fluorescence intensity”, `2'F-ANA at 4 5 7 8 10 12` is recorded as 72.5 a.u.
`2'F-ANA at 1 3 5 10 11 12 14` — result for “mean fluorescence intensity”: 57.4 a.u.
`2'F-ANA at 2 4 7 9 11 12 13 14` — result for “mean fluorescence intensity”: 102 a.u.
`2'F-ANA at 1 3 4 9 10 11 15`: “mean fluorescence intensity” 67.4 a.u.

Series 5
Target: PABPC1L2, full length, GST fusion (mouse, UniProt A0ABA7IW68)
Technique: RNAcompete
Molecule type: RNA
Matrix: in vitro
Tested at: 20 nM
Notes: 7-mer, probes averaged, single round
Baseline: mean of 7-mers
Direction: higher = stronger binding
Construct (chain): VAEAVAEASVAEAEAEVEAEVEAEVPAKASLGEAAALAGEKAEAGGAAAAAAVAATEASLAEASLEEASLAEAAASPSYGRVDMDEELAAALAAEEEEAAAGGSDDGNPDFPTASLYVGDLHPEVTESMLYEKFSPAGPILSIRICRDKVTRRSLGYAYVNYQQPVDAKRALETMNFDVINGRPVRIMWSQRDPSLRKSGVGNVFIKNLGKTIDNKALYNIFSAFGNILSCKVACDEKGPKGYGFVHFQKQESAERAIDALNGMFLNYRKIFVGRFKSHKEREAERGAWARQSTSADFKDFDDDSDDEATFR
`GGAGGUA` has a 7-mer Z-score of 0.0515.
For `UAUAGAA`, the 7-mer Z-score was 0.32.
`UAGCUUA` gave a 7-mer Z-score of -0.168.
`GUCCCCC` has a 7-mer Z-score of -0.316.
`GUCUUAA` gave a 7-mer Z-score of -0.209.
With `GGCAAAC` the 7-mer Z-score was 0.601.
For `GACCCUG`, the 7-mer Z-score was -0.258.
With `AUCUGCG` the 7-mer Z-score was -0.182.
The 7-mer Z-score of `CGCCGAU` is reported as -0.441.
With `CCACUAC` the 7-mer Z-score was -0.246.
For `ACAGUCC`, the 7-mer Z-score was -0.166.
The 7-mer Z-score of `AUCAGAA` is reported as 0.242.
With `UAUUCGC` the 7-mer Z-score was -0.4.
For `GGAUAAU`, the 7-mer Z-score was 0.0207.
With `UUCAUAA` the 7-mer Z-score was -0.0373.
The 7-mer Z-score of `GCUUACC` is reported as -0.251.
For `CUAAAUC`, the 7-mer Z-score was 0.066.
With `GAAAAAC` the 7-mer Z-score was 10.5.
For `GCCCAAG`, the 7-mer Z-score was -0.175.

Other studies, line by line
`PhoQ, residues 284 288 289 292 302 303 TLASMF` gave a fold induction of 7.45 (PhoP, residues 12 14 15 18 19 IQFRS (Escherichia coli, UniProt P23836); Sort-seq, item: YFP reporter; E. coli; PhoQ-PhoP variant library, with: 10 µM Mg2+; baseline: high Mg2+ state, higher = stronger signaling).
